Results collected from several papers.
Lines come from different studies, so protocols differ. Several values in a cell are separate wells, animals, samples, runs or records. Numbers after ± are the reported error.
UCHL1: Ubiquitin carboxyl-terminal hydrolase isozyme L1 (UCHL1, Homo sapiens, UniProt P09936)
TOP2A: DNA topoisomerase 2-alpha (TOP2A, Homo sapiens, UniProt P11388)
MET: Hepatocyte growth factor receptor (MET, Homo sapiens, UniProt P08581)
Voltage-dependent P/Q-type calcium channel subunit alpha-1A: Voltage-dependent P/Q-type calcium channel subunit alpha-1A (Homo sapiens, UniProt O00555)
ADRA2C: Alpha-2C adrenergic receptor (ADRA2C, Homo sapiens, UniProt P18825)

COc1cccc(NC(=O)C(C#N)=Cc2ccc(C#N)cc2)c1  labelling (UCHL1; covalent, intact protein LC-MS; 12.5 µM): 25.9%
CC[C@H](C)[C@@H]1NC(=O)[C@H](C)NC(=O)[C@H]([C@@H](C)CC)NC(=O)[C@H](CCC(N)=O)NC(=O)[C@H](C)NC(=O)[C@H](CCCNC(=N)N)NC(=O)[C@H](C(C)C)NC(=O)[C@H](CC(C)C)NC(=O)[C@H](CCC(=O)O)NC(=O)[C@H](CCCNC(=N)N)NC(=O)CNC(=O)[C@@H](NC(=O)[C@H](CC(C)C)NC(=O)[C@H](CCCCN)NC(=O)[C@@H](NC(=O)[C@@H](NC(=O)[C@H](CCC(=O)O)NC(=O)[C@H](CCC(=O)O)NC(=O)[C@H](CCSC)NC(=O)[C@H](Cc2c[nH]c3ccccc23)NC(=O)[C@H](CO)NC(=O)[C@@H](N)CC(=O)O)C(C)C)[C@@H](C)CC)CSSC[C@@H]2NC(=O)[C@@H](NC(=O)[C@H](CCCCN)NC(=O)[C@H](CC(N)=O)NC(=O)[C@H](C)NC(=O)[C@H](CC(C)C)NC(=O)[C@H](C)NC(=O)[C@H](CO)NC(=O)[C@H](Cc3ccc(O)cc3)NC(=O)[C@H](CC(C)C)NC(=O)[C@H](CCC(N)=O)NC(=O)c3ccc(-c4c5ccc(=[N+](C)C)cc-5oc5cc(N(C)C)ccc45)c(C(=O)[O-])c3)CSSC[C@H](NC(=O)CNC(=O)[C@H](C(C)C)NC(=O)[C@H](Cc3c[nH]cn3)NC2=O)C(=O)N[C@@H]([C@@H](C)O)C(=O)N[C@@H](CCCCN)C(=O)N[C@@H](CCCNC(=N)N)C(=O)N[C@@H](CO)C(=O)N[C@@H](CC(C)C)C(=O)N[C@@H](C)C(=O)N[C@@H](CCCNC(=N)N)C(=O)N[C@@H](Cc2ccccc2)C(=O)N[C@H](C(=O)O)CSSC[C@@H](C(=O)NCC(=O)N[C@@H](CCSC)C(=O)N[C@@H](CO)C(=O)N[C@H](C(=O)N[C@@H](Cc2c[nH]c3ccccc23)C(=O)N[C@@H](CO)C(=O)O)[C@@H](C)O)NC1=O  dissociation plateau (Relaxin receptor 1 (RXFP1, Homo sapiens, UniProt Q9HBX9, F76A/Y80A); binding, NanoBRET; added: relaxin 1 µM): 8.8%
CC(Cl)C(=O)NC1CCCN(S(=O)(=O)N2CCOCC2)C1 (stereo not drawn)  labelling (UCHL1; covalent, intact protein LC-MS; 12.5 µM): 22.3%
Cc1cc(Cl)c(O)c(NS(=O)(=O)c2cc(Cl)cc(Cl)c2O)c1F  remaining activity (malate dehydrogenase; enzyme activity, inhibitor; 200 µM, pH 7.0, 1% DMSO, aggregation counter-screen): 89%
O=C(O)c1ccc(Nc2ncc3c(n2)-c2ccc(Cl)cc2C(c2c(F)cccc2F)=NC3)cc1  remaining activity (MSK1(h); kinase activity; 1 µM): 93%
O=c1nc(SCc2cc(F)cc(C(F)(F)F)c2)nc(SCc2ccc3nc(OCCN4CCOCC4)ccc3c2)[nH]1  linear DNA (TOP2A; DNA cleavage; 125 µM, replicate 1): 0%
C[C@@H](c1ccc(-n2cnc3c(N)ncnc32)cc1)N1CCc2nn(C)c(Cc3ccccc3)c2C1=O  remaining binding (MET; KINOMEscan; 0.1 µM; baseline: DMSO control): 71%
COC(=O)c1cn(C)c2ccc(-c3cccnc3)cc12  activation (THRA (Homo sapiens, UniProt P10827); reporter gene, Gal4 hybrid reporter; 10 µM; baseline: vehicle): 0.71 fold
CCN1CCC[C@H]1CNC(=O)c1c(O)c(Cl)cc(Cl)c1OC  log2 fold change (G protein-coupled receptor 88 (Homo sapiens, UniProt Q9GZN0); β-arrestin recruitment, TANGO luminescence, item: GPR88; concentration not given; baseline: basal luminescence): -0.244
C[C@H](CCC(C)(C)O)[C@H]1CC[C@H]2[C@@H]3CC=C4C[C@@](C)(O)CC[C@]4(C)[C@H]3CC[C@]12C  current response (Glutamate NMDA receptor; GRIN1/GRIN2B (GRIN1/GRIN2B, Homo sapiens, UniProt Q05586+Q13224, L567A); positive allosteric modulator, two-electrode voltage clamp; Xenopus oocytes expressing GluN2B-L567A; 10 µM, 0.02% cremophor, added: 100 µM glutamate and glycine; baseline: without compound): 116 ± 4.2%
Nc1nc2c(ncn2[C@@H]2O[C@H](COP(=O)(O)O)[C@@H](O)[C@H]2O)c(=O)[nH]1  reaction rate (GUK1 (Homo sapiens, UniProt Q16774, Y81A); enzyme activity, NADH-coupled; 1000 µM): 3.85 s⁻¹ and 4.47 s⁻¹ and 4.41 s⁻¹
Oc1ccc(/C=C/c2cc(O)cc(O)c2)cc1  -TΔS (O-methyltransferase (Sorghum bicolor, UniProt A0A1B6PFV1); ITC; added: MET+): 5.06 kcal/mol
CCCN(CCC)CCc1cccc2c1CC(=O)N2  inhibition (Voltage-dependent P/Q-type calcium channel subunit alpha-1A; ion current, antagonist; HEK293; 10 µM): 5%
C=CC(=O)Nc1cccc(Oc2nc(Nc3ccc(N4CCN(C)CC4)cc3)nc3ccoc23)c1  kinact (Tyrosine-protein kinase BTK, non-activated (BTK, Homo sapiens, UniProt Q06187); covalent inhibitor): 0.00593 s⁻¹
Cc1ccc2ncccc2c1NS(=O)(=O)c1cccc(Cl)c1O  remaining activity (malate dehydrogenase; enzyme activity, inhibitor; 200 µM, pH 7.0, 1% DMSO, aggregation counter-screen): 100%
O=C(O)c1ccc(O)cc1  current density (BEST1 (Homo sapiens, UniProt O76090); whole-cell patch clamp; HEK293 transiently expressing channel; concentration not given, membrane potential 60 mV): 20.7 pA/pF and 36 pA/pF and 21.7 pA/pF and 50.7 pA/pF and 19.2 pA/pF and 24.8 pA/pF and 30.6 pA/pF
Cc1cn(C2CCN(Cc3cccc(Oc4cc(Cl)cc(Cl)c4)c3)CC2)c(=O)[nH]c1=O  highest concentration tested (Thymidylate kinase (DTYMK, Homo sapiens, UniProt P23919); enzyme activity, inhibitor; no inhibition observed): > 40 µM
Cc1cc(Oc2ncccc2CN2CCN(c3ccc([N+](=O)[O-])cc3C(F)(F)F)CC2)ccc1-c1c(C)c(=O)[nH]c(=O)n1C  selectivity ratio (ADRA2C; binding, radioligand binding; added: [3H]rauwolscine; baseline: Ki alpha2A over Ki alpha2C): 5
NCCCCC(=O)O  fraction bound (SLC6A6 (Homo sapiens, UniProt P31641, Y138A); binding, microscale thermophoresis; 35.1 nM, fitted curve; higher = more binding): 0
CC#CC(=O)N1CCOc2ccccc2C1C(=O)NC(C)(C)C (stereo not drawn)  labelling (UCHL1; covalent, intact protein LC-MS; 12.5 µM): 17.5%
CC(C)=CCC/C(C)=C/C=C/C(C)=C/C=C/C(C)=C/C=C/C=C(C)/C=C/C=C(C)/C=C/C=C(\C)CCC=C(C)C  Stern-Volmer quenching constant (Beta-lactoglobulin (LGB, Bos taurus, UniProt P02754); fluorescence quenching; 303 K): 5400 ± 1580 L/mol
CC(Oc1cccc(F)c1F)C(=O)N1CCN(C(=O)CCl)CC1 (stereo not drawn)  labelling (UCHL1; covalent, intact protein LC-MS; 12.5 µM): 9.82%
Nc1ncnc2c1ncn2[C@@H]1O[C@H](COP(=O)(O)OP(=O)(O)OP(=O)(O)O)[C@@H](O)[C@H]1O  Km (CKMT1A (Homo sapiens, UniProt P12532, H99K); substrate, ADP-Glo luminescence; pH 8.5, forward reaction, H61K mutant, added: second substrate in excess): 400 ± 100 µM
N#Cc1ccc(S(=O)(=O)n2nc(SCc3ccc(Cl)cc3)nc2N)cc1  probe labeling increase (LYPLAL1 (Homo sapiens, UniProt Q5VWZ2); enzyme activity, activator, gel-based ABPP; purified protein; concentration not given, added: FP-rhodamine; baseline: DMSO): 2.1 fold
CC(=O)Oc1ccccc1C(=O)O  IC30 (Voltage-dependent P/Q-type calcium channel subunit alpha-1A; ion current, antagonist, automated patch clamp): > 30 µM
C=CC(=O)N1CCC(COCC(=O)N2CCN(c3nc(-c4cnc(N)nc4C(F)F)nc(N4CCOC[C@@H]4C)n3)CC2)CC1  remaining binding (Tyrosine-protein kinase ABL1, non-phosphorylated (ABL1, Homo sapiens, UniProt P00519, F317L); KINOMEscan; 1 µM): 50%
C=CCNC(=O)C(C#N)=Cc1ccc(C#N)cc1  labelling (UCHL1; covalent, intact protein LC-MS; 12.5 µM): 19.3%
O=c1nc(SCc2cc(F)cc(C(F)(F)F)c2)nc(SCc2ccc3nc(Cl)ccc3c2)[nH]1  linear DNA (TOP2A; DNA cleavage; 31.25 µM, replicate 2): 0%
COc1cc(C=O)cc(Cl)c1OS(=O)(=O)c1ccc(NC(C)=O)cc1  labelling (UCHL1; covalent, intact protein LC-MS; 12.5 µM): 11.9%
Nc1ncnc2c1ncn2[C@@H]1O[C@H](COP(=O)(O)CP(=O)(O)OP(=O)(O)O)[C@@H](O)[C@H]1O  specific binding (P2X purinoceptor 1 (P2RX1, Homo sapiens, UniProt P51575, K136W); saturation binding; HEK293; 130 nM): 4910 CCPM
N#CC(=Cc1cccc(O)c1)C(=O)NCc1ccc(Cl)cc1  labelling (UCHL1; covalent, intact protein LC-MS; 12.5 µM): 24.4%
Cc1cc(Oc2ncccc2CN2CCN(c3ccccc3C(F)(F)F)CC2)ccc1-c1c(C)c(=O)[nH]c(=O)n1C  selectivity ratio (ADRA2C; binding, radioligand binding; added: [3H]rauwolscine; baseline: Ki alpha2A over Ki alpha2C): 10
CC[C@@H]1[C@H](F)C(=O)N[C@@H]1COc1nccc2cc(C(N)=O)c(OC)cc12  inhibition (PTK2 (Homo sapiens, UniProt Q05397); ATP probe binding, KiNativ profiling, item: Lys1 probe site; THP-1 cell lysate; 0.04 mM): -3.4%
Nc1ccc(C(=O)O)cc1  current density (BEST1, with wild-type BEST1 (Homo sapiens, UniProt O76090, R218H); ion current, whole-cell patch clamp; HEK293 co-expressing mutant and wild-type; concentration not given, voltage 60 mV): 11.4 pA/pF and 6.4 pA/pF and 4.75 pA/pF and 19.6 pA/pF and 12.6 pA/pF and 16.4 pA/pF and 25.3 pA/pF and 3.53 pA/pF
Oc1ccccc1-c1n[nH]cc1-c1ccnc2ccccc12  log2 fold change (Histidine protein kinase NIK1 (NIK1, Candida albicans, UniProt Q5A599); kinase binding, MIB/MS competition; Candida albicans lysate; 1 µM; baseline: DMSO, negative = stronger binding): -0.05
COC(=O)c1ccc(CN2CCCC(CCC(=O)NCc3ccc(C)o3)C2)cc1 (stereo not drawn)  inhibition (Trypanosoma cruzi; reporter translation, Renilla luciferase mRNA translation; cell-free extract; 40 µM; baseline: DMSO): -0.46%
C=CC(=O)N1CCC(C(=O)NCC(=O)N2CCN(c3nc(-c4cnc(N)nc4C(F)F)nc(N4CCOCC4)n3)CC2)CC1  remaining binding (MET; KINOMEscan; 1 µM): 75%
O=C(CCl)N1N=C(c2cccs2)CC1c1ccc(F)cc1 (stereo not drawn)  labelling (UCHL1; covalent, intact protein LC-MS; 12.5 µM): 16.5%
C/C(CC1CC2=C(CC1(C)C)C(C)(C)CCC2)=N\NC(N)=S (stereo not drawn)  inhibition (Trypanosoma cruzi; reporter translation, Renilla luciferase mRNA translation; cell-free extract; 40 µM; baseline: DMSO): 2.7%

For quick reference, copied from above:
COc1cc(C=O)cc(Cl)c1OS(=O)(=O)c1ccc(NC(C)=O)cc1  labelling (UCHL1; covalent, intact protein LC-MS; 12.5 µM): 11.9%
Nc1ncnc2c1ncn2[C@@H]1O[C@H](COP(=O)(O)CP(=O)(O)OP(=O)(O)O)[C@@H](O)[C@H]1O  specific binding (P2X purinoceptor 1 (P2RX1, Homo sapiens, UniProt P51575, K136W); saturation binding; HEK293; 130 nM): 4910 CCPM
N#CC(=Cc1cccc(O)c1)C(=O)NCc1ccc(Cl)cc1  labelling (UCHL1; covalent, intact protein LC-MS; 12.5 µM): 24.4%
Cc1cc(Oc2ncccc2CN2CCN(c3ccccc3C(F)(F)F)CC2)ccc1-c1c(C)c(=O)[nH]c(=O)n1C  selectivity ratio (ADRA2C; binding, radioligand binding; added: [3H]rauwolscine; baseline: Ki alpha2A over Ki alpha2C): 10
CC[C@@H]1[C@H](F)C(=O)N[C@@H]1COc1nccc2cc(C(N)=O)c(OC)cc12  inhibition (PTK2 (Homo sapiens, UniProt Q05397); ATP probe binding, KiNativ profiling, item: Lys1 probe site; THP-1 cell lysate; 0.04 mM): -3.4%
Nc1ccc(C(=O)O)cc1  current density (BEST1, with wild-type BEST1 (Homo sapiens, UniProt O76090, R218H); ion current, whole-cell patch clamp; HEK293 co-expressing mutant and wild-type; concentration not given, voltage 60 mV): 11.4 pA/pF and 6.4 pA/pF and 4.75 pA/pF and 19.6 pA/pF and 12.6 pA/pF and 16.4 pA/pF and 25.3 pA/pF and 3.53 pA/pF
